Measured values from different studies.
Each numbered part is a random draw from the data of one study; scales do not carry over between parts.

Study 1
Target: Interferon regulatory factor 7, full length, phosphomimetic (IRF7, Homo sapiens, UniProt Q92985, residues 1-503, S101K/S471D/S472D/S475D/S476D/S477D/S483D/S484D/S487D)
Method: protein-binding microarray
Molecule type: double-stranded DNA, one strand shown
Sample: in vitro
Tested at: 250 nM
Setting: 60-bp whole probe
Together with: salmon DNA 0.4 mg/ml
Baseline: random background probes
Reading: higher = stronger binding
Shared flanks, not repeated: GCCTAGCAC … GTCTTGATTCGCTTGACGCTGCTG
Residues (chain): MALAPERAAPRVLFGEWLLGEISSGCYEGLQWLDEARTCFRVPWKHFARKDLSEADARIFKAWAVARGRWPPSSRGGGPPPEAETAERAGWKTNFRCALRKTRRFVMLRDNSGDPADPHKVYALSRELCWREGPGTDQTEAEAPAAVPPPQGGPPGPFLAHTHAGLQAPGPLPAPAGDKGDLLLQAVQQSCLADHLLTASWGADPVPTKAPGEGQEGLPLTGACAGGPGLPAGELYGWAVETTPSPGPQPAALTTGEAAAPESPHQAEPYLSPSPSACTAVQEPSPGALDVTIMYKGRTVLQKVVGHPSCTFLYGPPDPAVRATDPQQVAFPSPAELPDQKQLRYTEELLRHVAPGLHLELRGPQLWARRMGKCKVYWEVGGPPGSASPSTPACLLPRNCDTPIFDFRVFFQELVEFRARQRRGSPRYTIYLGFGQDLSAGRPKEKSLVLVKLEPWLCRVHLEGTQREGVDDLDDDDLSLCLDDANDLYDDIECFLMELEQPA
Strand | log fluorescence
TTAGGACTGGTTTTCCTTTAGTGCTAG | 2.13 z-score
TCATCTTTTATTTTTTTACTGTGCTAG | 0.734 z-score
TTAGGCATCGGGTATCGGTTAGTGCTA | 0.607 z-score
GACGGTATCAACTATCGGGACGTGCTA | -0.452 z-score
GTCGGTTCCGGTTTCGGGACGTGCTAG | 8.63 z-score
TTAGGTTTCCTATTCCTTTAGTGCTAG | 3.27 z-score
ACCATTTTGGTTTTCCTTATGTGCTAG | 0.97 z-score
TTAGAACTGAGACTGGATTGGTGCTAG | -0.277 z-score
TTAGGTATCGGGATCGGTTAGTGCTAG | 1.45 z-score
TCACGTCTGATTTTGCTACTGTGCTAG | 0.25 z-score
CACGGTTTCGGTATCGGGACGTGCTAG | 10.4 z-score
TCAAGTATGACTCTGCCACTGTGCTAG | -0.0746 z-score
TTAGATTTCAGACTGGAGTAGTGCTAG | 0.124 z-score
TTACGACTGGGGTATCGGTTAGTGCTA | 0.101 z-score
TCAGCTCCAGGTTCTCTGACTGTGCTA | -0.541 z-score
GACGAACTTGGGTATCGAGACGTGCTA | -0.475 z-score

Study 2
Target: Histone acetyltransferase KAT6A, winged helix 1, GST fusion (KAT6A, Homo sapiens, UniProt Q92794, residues 1-85)
Method: protein binding microarray
Molecule type: double-stranded DNA, one strand shown
Sample: in vitro
Tested at: not given
Setting: 8-mer, flanks averaged, mean of 2 arrays, mostly near background
Baseline: not given
Reading: higher = stronger binding
Residues (chain): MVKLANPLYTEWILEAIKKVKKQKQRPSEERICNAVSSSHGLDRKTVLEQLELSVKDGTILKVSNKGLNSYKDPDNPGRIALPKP
Strand | E-score
ACCTCCAT | -0.0991
AGCATCAT | -0.151
TGGGAGAA | -0.288
AAATCTGG | -0.122
TTGAAAAA | -0.237
ACAGGAGA | -0.184
GGATCCCA | -0.139
GACGAAGA | -0.005
ACTTTTGG | -0.0912
CTCTGCTC | -0.279
AACAGTCG | 0.0349
CAATTCGG | 0.0372
ACGGATCC | 0.305
CCTGATAC | -0.0599
CATGTCAG | -0.167
GATGAATA | -0.108
AAGTTAAA | -0.0655
CCAGGTAA | -0.149
AATTCCCC | 0.0342
ACTCGTCC | -0.0623
AGTTCATA | -0.113
GTCCCAAC | -0.138
CCTACGGA | 0.154
AGATCCAA | -0.226
ACTGATTG | -0.308

Study 3
Target: RNA binding protein fox-1 homolog 2, RRM domain, GST-SBP tag (RBFOX2, Homo sapiens, UniProt O43251-10, residues 100-194)
Method: RNA Bind-n-Seq
Molecule type: RNA
Sample: in vitro
Tested at: 365 nM
Setting: natural RNA segment, single round, ends assumed
Baseline: no-protein control
Reading: higher = stronger binding
Residues (chain): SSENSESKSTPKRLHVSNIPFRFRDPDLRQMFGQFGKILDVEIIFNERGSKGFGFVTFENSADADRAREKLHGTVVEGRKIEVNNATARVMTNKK
Strand | RBNS enrichment (R)
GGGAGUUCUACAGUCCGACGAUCUACACGUUGUAAGAUGUGAAUUAUUGACACUGAGCUAACUGUACUGUUUGGAAAGGGGCCCUCAAGUUUUUGGCAUUUUUCUUUCCUUUUUGUAUGUGUGUAUGUAAUUUUGGAAUUCUCGGGUGCCAA | 1.04
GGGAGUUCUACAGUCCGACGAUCCUGUGUUUCUUGGCCUCUAGACUCUAACAGGCAGAGUCUAGAGUAAGUUUUAGGGUCUGGGCUGAGUCAAGGUGAGUUCCUCUGCCAGGAAGCCCUUUCUAGGAGGUUGUUGGAAUUCUCGGGUGCCAA | 0.802
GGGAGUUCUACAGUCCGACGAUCCUUACCUCUGAUCCACUUAGAGCAAUAACCACUUUUUAAAUGUAAAAUAAAAAGACAAAUGAAAAGGACAUCCUUGUCUUCUGGUAAAUGCCCAAAUGUUGCCCUCUUUUUGGAAUUCUCGGGUGCCAA | 0.437
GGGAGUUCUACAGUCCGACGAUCUUUUUAAUCUCAAAAGAGAGAGAUGUGUUUAAUGGACACAAGCUGUAGUUCUCAGCAAAACUUUGUCAGUUGGCACUGUUUACAAGUCUGUUAGCUGCAUAAGCUCAAUAUGGAAUUCUCGGGUGCCAA | 0.278
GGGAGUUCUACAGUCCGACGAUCGGACGAUGCCAGCCAGAGCCCCACAGAAGCAGCCAGGGCCUUGCAGCUUUGCCCCAAGCCAAUCCCUGCUUUUAAAUGACCCGCAGCGGGGAGCUCUGAAGAAGGAGCUCUGGAAUUCUCGGGUGCCAA | 0.494
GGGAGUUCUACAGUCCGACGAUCUAUUCCCUGUUGGUUCCUGUUUCACUGGCUGUUUUAGCUUUGUGUUGAUUGGUGUUUCUGAGCAUUCAGACUCCGCACCCUCAUUUCUAAUAAAUGCAACAUUGGACCCGUGGAAUUCUCGGGUGCCAA | 0.278
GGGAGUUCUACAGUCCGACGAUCUGAGUGAGUGUGCAUGUGUGGGAAUUCAUCAUAACCCUUGAAGCUAGCAAGCGACCGCUGUUGGCCGAGCUUCACUCAUGACUGCAGCGUGCAUGUAUCUCUUCACCAUGUGGAAUUCUCGGGUGCCAA | 11.3
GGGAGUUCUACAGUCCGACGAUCUCCUAGCCAGCUUCCCUUCACCUGGUGUCUUGAGUAGGGCGUCUCCUGUAAUUACUGCCUUGCCAUUCUGCCCCUGGACCCUUCUCUCCGGACCAGGGAGGCGUCCCUCCUGGAAUUCUCGGGUGCCAA | 1.55

Study 4
Target: Ras GTPase-activating protein-binding protein 1, full length (G3BP1, Homo sapiens, UniProt Q13283)
Sequence of UniProt Q13283 (whole entry, looked up): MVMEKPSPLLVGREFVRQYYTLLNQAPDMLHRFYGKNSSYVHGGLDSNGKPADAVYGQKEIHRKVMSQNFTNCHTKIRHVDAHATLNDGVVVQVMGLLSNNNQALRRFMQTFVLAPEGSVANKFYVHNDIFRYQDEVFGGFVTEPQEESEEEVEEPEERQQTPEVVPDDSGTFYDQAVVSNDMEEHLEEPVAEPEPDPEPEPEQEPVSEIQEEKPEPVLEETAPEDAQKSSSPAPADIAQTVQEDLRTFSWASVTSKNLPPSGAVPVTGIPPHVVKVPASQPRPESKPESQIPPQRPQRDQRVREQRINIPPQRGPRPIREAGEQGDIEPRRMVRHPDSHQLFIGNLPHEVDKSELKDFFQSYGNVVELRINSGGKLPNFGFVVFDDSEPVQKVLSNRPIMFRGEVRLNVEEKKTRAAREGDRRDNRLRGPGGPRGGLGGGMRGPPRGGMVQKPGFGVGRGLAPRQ
Method: RNA Bind-n-Seq
Molecule type: RNA
Sample: in vitro
Tested at: 200 nM
Setting: whole 134-nt RNA, ends assumed
Together with: 150 mM LiCl
Baseline: input library
Reading: higher = stronger binding
Library: 7-deaza-guanosine replaces G
Strand | log2 enrichment
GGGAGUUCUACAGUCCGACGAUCAGUCCUGUGCUACACAUCGUAUGUACCGAAUCGGGAAAAAAAGGGAGGGAAAAAGGGAAAGUAUUAUGUUACGCCGUUCGGAUCUGCACUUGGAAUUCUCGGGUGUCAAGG | -0.804
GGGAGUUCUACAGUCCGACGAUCCUGUGCUACACAUCGUAUGUACCGAAUCGGGGCCCCCCGGGCCCCCCGGGGCCCCCCGGGGAAAGUAUUAUGUUACGCCGUUCGGAUCUGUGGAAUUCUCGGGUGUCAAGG | -1.09
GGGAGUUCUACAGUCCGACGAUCUGGCCCUGGUGGCAUGCGGGGAGGAAGAGGUGGCCUCAUGGAUCGUGGUGGUCCCGGUGGAAUGUUCAGAGGUGGCCGUGGUGCAGACAGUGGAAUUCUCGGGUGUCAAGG | -0.456
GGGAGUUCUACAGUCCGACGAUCUUCAAGGCCAUGAAGGACCUGUUUAUGCGGUGCAUGCUGUUUACCAGAGGAGGACAUCAGAUCCUGCAUUAUGUACACUGAUCGUUUCUGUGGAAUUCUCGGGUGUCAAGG | -1.49
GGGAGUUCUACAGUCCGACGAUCCCUGUGCUACACAUCGUAUGUACCGAAUCAAAGUGUGUGUGUGUGAAAUGUGUGUGUGAAAAAAGUAUUAUGUUACGCCGUUCGGAUCUGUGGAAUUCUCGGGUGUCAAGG | -1.32
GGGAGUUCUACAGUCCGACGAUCUCCUGUGCUACACAUCGUAUGUACCGAAUCGGGGAAAAAAAGGGGUUUGGGGUUUGGGGAAAGUAUUAUGUUACGCCGUUCGGAUCUGCAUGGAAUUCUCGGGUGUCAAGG | -0.606
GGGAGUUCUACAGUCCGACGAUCUCCUGUGCUACACAUCGUAUGUACCGAAUCGGGGAAAGGGGAAAAAAAGGGGAAAGGGGAAAGUAUUAUGUUACGCCGUUCGGAUCUGCAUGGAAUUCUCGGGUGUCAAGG | 0.481
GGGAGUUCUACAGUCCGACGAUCACCAUGCAGGUGGGCAUCUUUGGGAAGUGGGGCAAGGGGGGGAUAGGGAAAAGGGUAACACUUUGGGAACAGGUGGUCCCAGGUCGUUUCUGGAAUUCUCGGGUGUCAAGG | 0.474

Study 5
Target: RING finger protein unkempt homolog, zinc fingers 1-6, GST-SBP tag (UNK, Homo sapiens, UniProt Q9C0B0, residues 30-357)
Method: RNA Bind-n-Seq
Molecule type: RNA
Sample: in vitro
Tested at: not given
Setting: RNA with constant flanks, human and mouse sites, ends assumed
Baseline: input RNA pool
Reading: higher = stronger binding
Construct (chain): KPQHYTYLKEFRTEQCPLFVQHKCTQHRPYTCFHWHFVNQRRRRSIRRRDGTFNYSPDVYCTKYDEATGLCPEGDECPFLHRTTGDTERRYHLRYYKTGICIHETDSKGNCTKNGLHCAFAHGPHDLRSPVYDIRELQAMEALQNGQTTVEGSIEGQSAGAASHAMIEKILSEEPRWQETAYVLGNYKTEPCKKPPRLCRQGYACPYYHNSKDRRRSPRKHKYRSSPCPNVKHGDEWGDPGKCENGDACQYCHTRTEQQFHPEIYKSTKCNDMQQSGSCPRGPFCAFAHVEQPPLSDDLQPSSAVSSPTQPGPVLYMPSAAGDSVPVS
Strand | bound/input enrichment [ratio]
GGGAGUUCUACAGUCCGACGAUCUUGGAGGAAGUAGGGCAGGGCCCUUAUCUGGAAAGAAGUUUGGAAACCCUGGGGAGAAAUUAGUUAAAAAGAAGUGGAAUCUUGAUGAGCUGCCUAAAUUUGAGAAGAAUUUUUAUCAAGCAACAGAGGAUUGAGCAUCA | 2.94
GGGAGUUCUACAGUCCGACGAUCAGAAAUUGGACCAUCACUCGGCUUAAUGGUGAUUUUGCUCAGCUUAAUUUAAAGAUAAAAUUUCUUGAAGCUGGUAUCUAUGAAGUUCCCAUCAUAAUCACAGAUUCGGGUAAUCCUCCCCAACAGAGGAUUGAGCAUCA | 0.312
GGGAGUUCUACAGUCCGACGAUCAUCCAGGCAGCAGACAGCACAGCUGUGAAUGGCAGCAUUACACCCACAGACAAAAAGAUAGGAUUUUUGGGCCUUGGCUUAAUGGGAAGUGGCAUCGUCUCCAACUUGCUAAAAAUGGGUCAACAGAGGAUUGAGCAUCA | 0.411
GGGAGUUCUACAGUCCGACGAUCCCUGCAAGUUUGCAGAGAGGUUUACAUCGCCAAGCUUUGGCCUUUCAUUUCUGCAAAGCCCAGGACUCUGAUACUUUGUGUGUUGGAGGGUUUAUUAGAGGUCUAGUAGCCCAGAUCUGCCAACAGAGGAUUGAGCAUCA | 0.087
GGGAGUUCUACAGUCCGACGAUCGAAGACACCUGCAUCAUCCGCAUCAGUGUAGAAGACAACAAUGGCAACAUGUACAAGAGCAUCAUGCUGACAAGCCAGGAUAAGACCCCCGCUGUGAUCCAGAGAGCGAUGUCGAAGCACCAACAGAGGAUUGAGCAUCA | 0.111
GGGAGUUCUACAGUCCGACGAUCUGGCUACAAAAGAAGAGAAGAAUAAAACUCUAUCAGAAACCAGAAGGAAAUCACAUUAUCAAGGUUGGAAUUUAUCUUUUGGAAGCUGGCCUAGCAAAACUAGACUUCUUGAGUGAUGCACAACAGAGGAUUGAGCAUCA | 0.345
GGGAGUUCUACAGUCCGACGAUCAUUAUUCAGGUUGACAAAGCUUAUGACUACCUCAUUCAAAAUACAUCAUUUGCUAACAGAUUAGGUUUUACAGUUACUGUUGGAAAUAACCGUGGUAUCUACCUCCGAGAUCCUGUCCAGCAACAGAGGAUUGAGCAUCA | 0.417
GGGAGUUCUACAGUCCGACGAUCAAGCCAUUCCCAGAGCAUCUCUACCAGCGUGUCAGGAUCAGAAGCAAGGUUUUCGGGUUGCAUAGUGUUUCCAGGGGCAUGUACGAUGGGCCUGUGUACGAGGUGCCAGCUACACCCAAACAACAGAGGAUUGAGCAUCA | 0.14
